Measurements of several laboratories.
Parts stem from different laboratories: compare values within a part only.

Sample 1
Target: Prothrombin, mature alpha-thrombin (F2, Homo sapiens, UniProt P00734)
Technique: aptamer microarray, sandwich
Molecule type: DNA with 2'F-ANA
Matrix: in vitro
Concentration: 200 nM
Setting: whole 15-mer aptamer, many near background
Together with: Cy3 exosite-II aptamer, 400 nM
Reading: higher = stronger binding
Sequence: GGTTGGTGTGGTTGG
Modification | mean fluorescence intensity [a.u.]
2'F-ANA at 1 4 6 7 8 9 10 12 14 15 | 54.9
2'F-ANA at 5 6 7 8 11 15 | 99.5
2'F-ANA at 1 4 5 6 7 8 9 10 11 12 13 | 48.8
2'F-ANA at 2 3 4 7 9 11 14 | 274
2'F-ANA at 1 2 3 6 9 12 15 | 414
2'F-ANA at 2 3 5 6 7 13 15 | 80.9
2'F-ANA at 1 3 4 5 6 7 8 10 12 15 | 85.6
2'F-ANA at 1 3 6 8 10 12 14 15 | 78.9
2'F-ANA at 1 2 3 5 6 7 9 10 13 14 15 | 53.2
2'F-ANA at 1 3 4 5 6 8 9 10 12 13 14 15 | 195
2'F-ANA at 1 3 6 7 8 9 12 13 15 | 433
2'F-ANA at 6 7 8 11 12 14 | 233
2'F-ANA at 1 2 4 6 8 10 13 14 15 | 57.5
2'F-ANA at 2 11 12 13 14 15 | 149
2'F-ANA at 2 3 6 7 8 9 11 14 15 | 304
2'F-ANA at 4 6 7 9 12 14 15 | 227
2'F-ANA at 1 2 3 4 9 10 12 14 | 65.7
2'F-ANA at 1 8 9 10 11 14 15 | 53.7
2'F-ANA at 2 4 5 7 8 9 10 11 12 | 50.5
2'F-ANA at 1 4 5 8 9 11 13 14 | 46.9
2'F-ANA at 1 3 4 6 7 12 13 14 15 | 77.6
2'F-ANA at 2 3 5 6 11 13 15 | 65.5

Sample 2
Target: RNA binding protein fox-1 homolog 2, RRM domain, GST-SBP tag (RBFOX2, Homo sapiens, UniProt O43251-10, residues 100-194)
Technique: RNA Bind-n-Seq
Molecule type: RNA
Matrix: in vitro
Concentration: 365 nM
Setting: natural RNA segment, single round, ends assumed
Baseline: no-protein control
Reading: higher = stronger binding
Constant ends, left off below: GGGAGUUCUACAGUCCGACGAUC … UGGAAUUCUCGGGUGCCAA
Construct (chain): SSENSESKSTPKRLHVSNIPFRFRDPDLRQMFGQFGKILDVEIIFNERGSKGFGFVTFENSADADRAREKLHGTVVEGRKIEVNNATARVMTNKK
Sequence | RBNS enrichment (R)
CAUUGCCUACAGUGAUGAAAGCGUCUAUGGUCUUGAAGCUGCUGUACCUGAGGUGGGGGGUUCCAUUCUACGAAGAGAGGUGGCGCUCCUUCCUUGACAUCCAGUUCCUC | 0.225
GGGUAAAGACGAGGGGUCAGGGUUCAACUUGACAGUGUACUUCGCUAGGAAGGAGAGGCCCUUGCCUGCUAUAACCAUGCCUAGAGUGCCUGUCCUCCAGUAUUGCACCU | 0.254
AGCUAAAGAAAAACUGCAUAUGCAAAUCAUACCGUAUUCAUUUUUUUAUUUAACUUGGGGAUGGAAUGGGGAUAGCAUACAUUUUAUUUGUACAAUAUUUAACAAUCACU | 0.351
UAAAACAGUCACGAACCAAACCUGUGCAGUCCCUUGUUCCAGAUCACCUGGAACUGGAUUGGGAAGAGAACAGGACUUGGUGGCCAGGACCGCUCAGAGAGCCAUGGUUG | 0.166
UGCUUUACAAGUGACCAGCCAUCUUGCAGGCUUCAUGCUUCUGAGAGCCUUACUUAGAAGAUGCUGCUGGAGUCACAGCUGAGGAGAGGAAUACUAUCAACAUGGACUAU | 0.535
UGCCUGAGGUACUUUUUAAGGAGGUAGUGUACAUGGGACCUUUUUGAAGUAGACUGGAUAAGGGCCAGUAGCGACUUGCGACUAGACUUUAAACUUUGCUCUUUCAGGUG | 1.04
AAAGCAGUCAGUUUCAGAAGAUACUUUUUAUCAAAAAAGAUGGCAGGUUUAACAUUAUACCUUUUGGUUUUUGCCCAACAUUUGAUUUAAUCUAAAGCAAGAAUAUAAAA | 0.484
CCAUCUAUUCUUGCAGCCAUCUCAGCCAGGGUCUAUGUCUUAGGACCUUCCUCCGGCCUUCCAUGAGAAGCAGCCACAGGGGGCCUGGUUUCCUCCUAAGGCCCUUCUCU | 0.53
GUAGCGUCUCAAGGUAUGCGUUCUCUCAAAGGAAAGCUAUGCAUCGCUGCUUCGUUGUCUGAUUUUGCUUAGAUUUUGCUUUGGUUAGGUUGCGUUUUGGGGUUUGCCUU | 0.425
GUAUACAGUGCAGAGCCUUCUCAGAAGCACAUGAUAUUUUUGUAUUUCCUUUAUGUGAAUUUUUAAGCUGCGAAUCUGAUGGCCUUAAUUUCCUUUUUGACACUGAAAGU | 0.392
AAAUAUUUUAGAUAAUUCUUAAACUAUGAACCUUCUUAACAUCACUGUCUUGCCAGAUUACCGACACUGUCACUUGACCAAUACUGACCCUCUUUACCUCGCCCACGCGG | 0.884
CAGUGGUGUGAGUAACUGAGUCAAAUUGUCAAGUACUUUGGAUAUACAUAGUGUCGAGCUUUAGAUUGGUAUGAAAUUAAACAGCAAUGCAAAUAGAUUUAAUUCCUAUU | 1.42

Sample 3
Target: Ras GTPase-activating protein-binding protein 1, full length (G3BP1, Homo sapiens, UniProt Q13283)
Sequence of UniProt Q13283 (whole entry, looked up): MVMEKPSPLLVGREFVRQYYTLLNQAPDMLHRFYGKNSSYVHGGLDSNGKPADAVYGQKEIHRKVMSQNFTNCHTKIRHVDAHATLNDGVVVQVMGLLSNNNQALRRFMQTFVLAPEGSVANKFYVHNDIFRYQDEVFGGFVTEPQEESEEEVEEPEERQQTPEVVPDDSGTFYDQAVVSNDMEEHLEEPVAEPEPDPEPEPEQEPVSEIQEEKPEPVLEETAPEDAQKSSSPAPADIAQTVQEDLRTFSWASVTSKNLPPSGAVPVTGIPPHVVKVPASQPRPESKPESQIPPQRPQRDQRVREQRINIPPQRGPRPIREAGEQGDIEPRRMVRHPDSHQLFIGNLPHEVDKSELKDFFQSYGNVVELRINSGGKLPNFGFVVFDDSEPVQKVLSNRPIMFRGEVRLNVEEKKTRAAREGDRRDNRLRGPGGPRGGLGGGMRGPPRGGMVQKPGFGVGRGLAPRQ
Technique: RNA Bind-n-Seq
Molecule type: RNA
Matrix: in vitro
Concentration: 200 nM
Setting: whole 134-nt RNA, ends assumed
Together with: 150 mM LiCl
Baseline: input library
Reading: higher = stronger binding
Each molecule: 7-deaza-guanosine replaces G
Constant ends, left off below: GGGAGUUCUACAGUCCGACGAUC … UGGAAUUCUCGGGUGUCAAGG
Sequence | log2 enrichment
ACCAUGCAGGUGGGCAUCUUUGGGAAGUGGGGCAAGGGGGGGAUAGGGAGGGGGGUAACACUUUGGGAACAAAUGGUCCCAGGUCGUUUC | 0.333
CUGUGCUACACAUCGUAUGUACCGAAUCGGCCCCCCCGGGGCCCCCCCGGCCCCCCCGGGGAAAGUAUUAUGUUACGCCGUUCGGAUCUG | -0.225
ACCAUGCAGGUGGGCAUCUUUGGGAAGUGGGGCAAGGGGAGGAUAGGGAGGGGGGUAACACUUUGGGAACAGGUGGUCCCAGGUCGUUUC | 0.376
AAGUCCUGUGCUACACAUCGUAUGUACCGAAUCGGGCCCGGGGCCCGGGCCCGGGGAAAGUAUUAUGUUACGCCGUUCGGAUCUGCACUU | -2.15
AGUCCUGUGCUACACAUCGUAUGUACCGAAUCGGGGUUUGGGGAGGGGUUUUUGGGGAAAGUAUUAUGUUACGCCGUUCGGAUCUGCACU | 0.00764
GCAGGAAGUAAAAACAAAUGGAAAUGCUUCGGAUAGUGGCAGGGGUGGGGGUUGCUAAGGAAAGGGUGGGAUGGGAGUGGGUAUAGAGUU | 0.598
UGGGAGGUGGAUUUUGUUUAUUUUUUUAGCUCAUUUCCAGGGGUGGGAAUUUUUUUUUAAUAUGUGUCAUGAAUAAAGUUUUUUUUGAAA | -0.122
UCAAGUCCUGUGCUACACAUCGUAUGUACCGAAUCGGUUUUUGGAAAGGUUUGGAAAGUAUUAUGUUACGCCGUUCGGAUCUGCACUUCC | -1.19
GCAGGAAGUAAAAACAAAUGGAAAUGCUUCGGAUAGUGGCAAAAGUGGGGGUUGCUAAGGAAAGGGUGGGAUGGGAGUGGGUAAAGAGUU | 0.292
AGUCCUGUGCUACACAUCGUAUGUACCGAAUCGGGUUUUUGGGAAAGGGAAAAAGGGAAAGUAUUAUGUUACGCCGUUCGGAUCUGCACU | -0.896
UGGCCCUGGUGGCAUGCGGGGAGGAAGAGGUGGCCUCAUGGAUCGUGGUGGUCCCGGUGGACUGUUCAGAGGUGGCCGUGGUGGAGACAG | 0.648

Sample 4
Target: Histone acetyltransferase KAT6A, winged helix 1, GST fusion (KAT6A, Homo sapiens, UniProt Q92794, residues 1-85)
Technique: protein binding microarray
Molecule type: double-stranded DNA, one strand shown
Matrix: in vitro
Concentration: not given
Setting: 8-mer, flanks averaged, mean of 2 arrays, mostly near background
Baseline: not given
Reading: higher = stronger binding
Residues (chain): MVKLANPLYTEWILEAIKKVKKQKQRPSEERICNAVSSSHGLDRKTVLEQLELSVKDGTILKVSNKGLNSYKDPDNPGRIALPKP
Sequence | E-score
AGTATACA | -0.154
CAGACAGA | -0.279
TATATAGA | -0.17
CCACTCAC | -0.0529
TCCCGGCA | 0.339
TAATAGGA | -0.00268
GGATCTAA | 0.0495
AAGCTCGG | -0.00875
ACGTAGTC | -0.0616
ACGCGACC | 0.267
GACATATC | -0.0757
CTGATCAA | -0.0863
ATAAGGCG | 0.192
ATATAGCG | 0.172
AGCGCGCT | 0.382
AGACAGTA | -0.216

A few entries again (sample 3):
Sequence | log2 enrichment
UGGCCCUGGUGGCAUGCGGGGAGGAAGAGGUGGCCUCAUGGAUCGUGGUGGUCCCGGUGGACUGUUCAGAGGUGGCCGUGGUGGAGACAG | 0.648
AGUCCUGUGCUACACAUCGUAUGUACCGAAUCGGGGUUUGGGGAGGGGUUUUUGGGGAAAGUAUUAUGUUACGCCGUUCGGAUCUGCACU | 0.00764
GCAGGAAGUAAAAACAAAUGGAAAUGCUUCGGAUAGUGGCAGGGGUGGGGGUUGCUAAGGAAAGGGUGGGAUGGGAGUGGGUAUAGAGUU | 0.598
AGUCCUGUGCUACACAUCGUAUGUACCGAAUCGGGUUUUUGGGAAAGGGAAAAAGGGAAAGUAUUAUGUUACGCCGUUCGGAUCUGCACU | -0.896
UGGGAGGUGGAUUUUGUUUAUUUUUUUAGCUCAUUUCCAGGGGUGGGAAUUUUUUUUUAAUAUGUGUCAUGAAUAAAGUUUUUUUUGAAA | -0.122
AAGUCCUGUGCUACACAUCGUAUGUACCGAAUCGGGCCCGGGGCCCGGGCCCGGGGAAAGUAUUAUGUUACGCCGUUCGGAUCUGCACUU | -2.15
ACCAUGCAGGUGGGCAUCUUUGGGAAGUGGGGCAAGGGGAGGAUAGGGAGGGGGGUAACACUUUGGGAACAGGUGGUCCCAGGUCGUUUC | 0.376
CUGUGCUACACAUCGUAUGUACCGAAUCGGCCCCCCCGGGGCCCCCCCGGCCCCCCCGGGGAAAGUAUUAUGUUACGCCGUUCGGAUCUG | -0.225
